Experimental data of several laboratories.
Parts stem from different laboratories: compare values within a part only. Positions count from the first letter of the parent shown.

Sample 1
Target: RNA binding protein fox-1 homolog 2, RRM domain, GST-SBP tag (RBFOX2, Homo sapiens, UniProt O43251-10, residues 100-194)
Technique: RNA Bind-n-Seq
Form: RNA
Sample: in vitro
Concentration: 365 nM
Setting: natural RNA segment, single round, ends assumed
Reference: no-protein control
Reading: higher = stronger binding
Residues (chain): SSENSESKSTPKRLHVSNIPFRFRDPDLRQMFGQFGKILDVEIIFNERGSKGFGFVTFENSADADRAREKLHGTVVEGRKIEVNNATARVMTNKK
Oligonucleotide | RBNS enrichment (R)
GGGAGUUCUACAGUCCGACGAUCGUUUUGUUAGGCUUUGAGUGUCUAUUCGGUUCCUAUCAAAGCUAGUGUGUAUUCCUUUCCACUACAGAAGAACCAUCACUCUCAUGGGUGUCCCAGCCUCCAGCAAGGGCUGGAAUUCUCGGGUGCCAA | 0.25
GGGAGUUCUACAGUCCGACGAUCGUGAGCCCCGUAGUGAUGGCCUCUGCCUUGUGCUUGGCCUUCCCCAUUGCCUGCACCUGAAACAGCCACCCACAUACACACUCUGGUAGGUCAGGGGGUCCCCGACAAUCUGGAAUUCUCGGGUGCCAA | 0.436
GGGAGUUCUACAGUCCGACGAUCAGACAAAACCUUUAUUCCAUGUGCUUUGCUUCAUUCUGUACAUAGCUCUUUGGCUCGUGAACCUAAUUGUAAACUUUCAGGUAUUUUUGUACAAAUAAGGGACUGAUGUUUGGAAUUCUCGGGUGCCAA | 0.349
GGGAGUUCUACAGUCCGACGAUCGGUUAAGGAUGUAGUUCCUUUGUAAGGGUGGGCAGGCCUCGUAAGAAAGAUGUAGCAGCAUAUUCACUAUCCGUUAAUCCUUCUUUCUUUGAGGCUGGAACUUGCUCUCUUGGAAUUCUCGGGUGCCAA | 0.286
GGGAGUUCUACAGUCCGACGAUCUGAUGCACACUUUUGCAAGCGUGUAAGAUGUUACCUGGUUUGUCUCUUUUGGAAAACAAAAAUCAGAAGGCUGCAUUCUAGAGGGCAGAGAAAUUCCCCCGAAGACUGAGUGGAAUUCUCGGGUGCCAA | 0.326
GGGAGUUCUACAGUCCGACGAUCUAGCAGCCCCUCCCUAAAGCAUUCUGAGGUAAGGAGGUAUCCAUUCUUCAAAUGAAUGUGAGUGAAGCAGCCCAAGGCUCUUCCUUAAUUCCUCUGGAGUGAUGCUGUGCUGGAAUUCUCGGGUGCCAA | 0.319
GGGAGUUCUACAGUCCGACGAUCCUGAAGCCUGUGAAUGAUGUCUGGUACACCACAGUGUUUUCUCCAGAGAACUGGCCUAAGCUCUAGAUUAGCCAAGAAAGCUGGAAAACAGAGCGCCAGGCUUCACUCUGUGGAAUUCUCGGGUGCCAA | 0.323
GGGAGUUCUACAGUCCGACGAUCUUUUCUGUUUAGGAAGAAGUGGUACUAGUGUGGUGUGUUUGCUUGGAAAUUCCUUGCCCCACAGUUGUGUUCAUGCUGAAUCCACCUCGGAGCAUGGUGUUUUCAUUCCCUGGAAUUCUCGGGUGCCAA | 1.75

Sample 2
Target: RING finger protein unkempt homolog, zinc fingers 1-6, GST-SBP tag (UNK, Homo sapiens, UniProt Q9C0B0, residues 30-357)
Technique: RNA Bind-n-Seq
Form: RNA
Sample: in vitro
Concentration: not given
Setting: RNA with constant flanks, human and mouse sites, ends assumed
Reference: input RNA pool
Reading: higher = stronger binding
Residues (chain): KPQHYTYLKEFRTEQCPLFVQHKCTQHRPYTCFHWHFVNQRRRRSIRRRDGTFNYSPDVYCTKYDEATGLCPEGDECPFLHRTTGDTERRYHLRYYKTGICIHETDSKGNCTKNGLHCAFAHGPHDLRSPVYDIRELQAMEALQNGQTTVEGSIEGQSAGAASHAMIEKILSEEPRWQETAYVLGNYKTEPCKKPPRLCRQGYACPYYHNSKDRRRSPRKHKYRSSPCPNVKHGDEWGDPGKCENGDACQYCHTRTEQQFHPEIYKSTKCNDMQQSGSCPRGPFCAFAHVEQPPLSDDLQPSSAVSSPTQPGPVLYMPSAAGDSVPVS
Oligonucleotide | bound/input enrichment
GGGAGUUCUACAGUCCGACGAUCCUAGCCAAACACCCAUGCAAUGCUUCAAUGGAAUGCGACAAAUGUCAGAGGCGGCAGAAGAAUAGAGCAUUUUGCUAUUUUUGUAAUUCUGUUCAGAAGUUACCAAUUUGUGCACAGUGUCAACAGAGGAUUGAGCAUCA | 0.241 ratio
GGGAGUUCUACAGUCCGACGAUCAAGAAGUUUAAGGAAGUGGGAGAGGCCUUUACCAUCCUCUCUGAUCCCAAGAAAAAGACUCGUUAUGACAGUGGACAGGACUUGGAUGAGGAGGGCAUGAAUAUGGGCGAUUUUGAUGCACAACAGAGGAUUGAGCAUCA | 1.04 ratio
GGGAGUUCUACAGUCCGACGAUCAUCCAUUCUACUCCUUGGAAAUGCCUAUCAGAUGCGAGCUGUUUGAUCAAAACCUGAAGCUAGCUCUAGAGGUGGCAGAGAAGGCUGGCACUUUUGGACCUGGGUCAUAGGAUGAACCUGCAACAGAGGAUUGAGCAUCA | 0.192 ratio
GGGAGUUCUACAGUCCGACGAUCUCGUGUCAGGGCAGGCUUCCUGUCUCAGCCUUCUGAGUAUUGGGAUUACAGUUGUCUGCCUAGCUGAUGUCCUGUCUUCUUUCAGCAGAGGCAUGUGCACCCAACAUGCACAUGAUUAAGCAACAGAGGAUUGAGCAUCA | 0.087 ratio
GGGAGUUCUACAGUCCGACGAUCAAAAUCCUCCCUCAAAGGAUUCGGGAGCUGGUCCCCGAGUCCCAGGCUUACAUGGACCUCUUGGCAUUUGAGAGGAAACUGGAUCAAACCAUCAUGCGGAAGCGGGUGGACAUCCAGGAGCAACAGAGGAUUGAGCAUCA | 0.121 ratio
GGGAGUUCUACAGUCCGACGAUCGUGUCACCUGCAGUGCCCAUCUACAAUGCAAUUAUGUUUCUCUUUGUGUUGGCCAACUUCAGCAUGGCCACCUUCAUGGACCCAGGGAUUUUCCCUCGAGCUGAGGAGGAUGAGGACAAGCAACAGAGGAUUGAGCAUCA | 0.16 ratio
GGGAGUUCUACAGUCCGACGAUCAGAAUGGAAGAUUUCACAUUUAAUGACUUGCAUAUUAAACUUGGCUUUCCUUACUUAUACUGUCACCAGGGAGACUGUGAGCAUGUUGUUGUCAUCACAGACAUAAGGCUUGUGCACCAUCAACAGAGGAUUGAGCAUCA | 0.291 ratio
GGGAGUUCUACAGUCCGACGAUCGCUCUUACCCCAACUUUGUCCGAAACUUCCAUUGACAAGUUGAAGUUAUCAAGCCCUGAACUUCCCAAGCCAUGGGACAGUGGAGACCUGCCACUGGAUGAAGAGAAUCCUAACUCUCUUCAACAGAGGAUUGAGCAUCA | 0.362 ratio

Sample 3
Target: CEP164, C-terminal peptide (human)
Technique: DHFR complementation, deep sequencing
Sample: yeast
Setting: single substitutions, model-inferred values
Reference: wild type
Reading: higher = weaker binding
Starting sequence: PDZK1, PDZ domain 2 (human); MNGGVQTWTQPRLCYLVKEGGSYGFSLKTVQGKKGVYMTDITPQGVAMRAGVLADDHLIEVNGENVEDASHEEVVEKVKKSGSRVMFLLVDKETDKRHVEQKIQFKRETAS; partner HNRVKVYRF
Substitution | binding free energy change
L58G | 0.533 kcal/mol
E93H | -0.164 kcal/mol
L58W | 0.955 kcal/mol
G21C | 0.291 kcal/mol
K92V | -0.1 kcal/mol
V61K | 1.24 kcal/mol
L89K | 1.74 kcal/mol
T9W | 0.114 kcal/mol
K96Q | 0.0147 kcal/mol
N62G | 1 kcal/mol
L89Y | 1.46 kcal/mol
A54N | -0.211 kcal/mol
I103N | -0.0511 kcal/mol
D56G | 0.354 kcal/mol
S111F | 0.951 kcal/mol
E60A | -0.194 kcal/mol
G45Q | 0.823 kcal/mol
K96W | 0.0758 kcal/mol
R49S | 0.398 kcal/mol

Sample 4
Target: Centromere-binding protein 1, full length, His-tagged (CBF1, Saccharomyces cerevisiae, UniProt P17106, residues 1-351)
Sequence of UniProt P17106 (whole entry, looked up): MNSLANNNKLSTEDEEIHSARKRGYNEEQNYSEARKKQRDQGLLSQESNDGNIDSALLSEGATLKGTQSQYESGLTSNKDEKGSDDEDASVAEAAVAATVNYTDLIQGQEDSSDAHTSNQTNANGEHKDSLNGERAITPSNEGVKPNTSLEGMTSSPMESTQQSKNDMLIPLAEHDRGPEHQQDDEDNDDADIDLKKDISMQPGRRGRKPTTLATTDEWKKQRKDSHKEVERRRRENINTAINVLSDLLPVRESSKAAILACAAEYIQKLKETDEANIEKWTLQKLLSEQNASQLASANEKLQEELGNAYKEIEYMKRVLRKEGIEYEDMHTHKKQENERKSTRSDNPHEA
Technique: competition protein-binding microarray
Form: double-stranded DNA, one strand shown
Sample: in vitro
Concentration: 2 µM
Setting: whole 60-bp probe, lowest competitor level
Together with: Pho4 competitor, 0.05 µM
Reading: higher = stronger binding
Oligonucleotide | fluorescence intensity [a.u.]
CATACCCAACCTTGTAATGTGGGTGAAGATATTTGTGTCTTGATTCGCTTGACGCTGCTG | 65.1
AGGCAGCAATATTGGCGTGTGCCGCTGAATACATTCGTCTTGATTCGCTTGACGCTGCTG | 70.9
CACTCTGCTCACCGCTGCGTGCTTTTTGAACAAATTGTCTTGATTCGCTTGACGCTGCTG | 82.1
GCCCGCTCCCGCCGGCTCGTGCCAGCAAATCAGACAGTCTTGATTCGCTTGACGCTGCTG | 83.9
AGAGCGTCGTTTGCTTACGTGATGGTTAAGTGCCTTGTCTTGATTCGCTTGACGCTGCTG | 65.8
CGTCCTAGCGATTGAAATGTGGGTGCCATGAGGAAGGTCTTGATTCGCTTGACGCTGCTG | 72.9
CTTTCCCGATCTTGTCTGGTGGGTGTAGCACATTTGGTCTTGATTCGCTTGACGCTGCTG | 86.6
TGCGCAACAACTTGACCCGTGGGTGTATGTCTAGAAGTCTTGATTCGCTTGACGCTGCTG | 57.1
TGCGCAACAACTTGATATGTGGGTGTATGTCTAGAAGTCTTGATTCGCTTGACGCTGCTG | 74
AAAAGTGTCTGGACCTTTTTTTTCTCATGCGATTTTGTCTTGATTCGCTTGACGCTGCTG | 77.2
CGTCCTAGTGATTGCATTGTGGGTGCCATGAGGAAGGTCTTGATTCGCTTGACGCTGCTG | 86.7
TGGACCTGGCATACTACCGTGCCAGTAAACGTAGGAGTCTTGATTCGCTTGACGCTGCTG | 57.9
GTCTTGTCTCATTTTCACGTGTGATTCCCCACTTCAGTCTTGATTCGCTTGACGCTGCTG | 562
CGTCCTAGTGATTTTCACGTGGCGTCCATGAGGAAGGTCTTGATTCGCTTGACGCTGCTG | 815
TCTTTACGGGCAGATGCTGTCTCCACTATTAACTTGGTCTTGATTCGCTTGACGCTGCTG | 71.6
GGTCATTTCTGACAACACGTGTTTTCTGCCACTGCTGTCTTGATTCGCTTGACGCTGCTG | 2180
AAAGCGGTAATTTGCTGCGTGGGTGCAGATATCTATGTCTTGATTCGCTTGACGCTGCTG | 71.4
ATCGTTTATAGTGGGCATGTGGCTGGTTGAACAATGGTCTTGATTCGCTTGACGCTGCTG | 141
CTTCTGTAAATTTGTCACACTACTTGACGCGCCCCGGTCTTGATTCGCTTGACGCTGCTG | 132

Excerpt of the above (sample 3):
Substitution | binding free energy change
A54N | -0.211 kcal/mol
K92V | -0.1 kcal/mol
E60A | -0.194 kcal/mol
L58W | 0.955 kcal/mol
